Published values of several laboratories.
Lines come from different studies, so protocols differ.
PIP4K2C: Phosphatidylinositol 5-phosphate 4-kinase type-2 gamma (PIP4K2C, Homo sapiens, UniProt Q8TBX8)
UniProt Q8TBX8, sequence (whole entry, looked up): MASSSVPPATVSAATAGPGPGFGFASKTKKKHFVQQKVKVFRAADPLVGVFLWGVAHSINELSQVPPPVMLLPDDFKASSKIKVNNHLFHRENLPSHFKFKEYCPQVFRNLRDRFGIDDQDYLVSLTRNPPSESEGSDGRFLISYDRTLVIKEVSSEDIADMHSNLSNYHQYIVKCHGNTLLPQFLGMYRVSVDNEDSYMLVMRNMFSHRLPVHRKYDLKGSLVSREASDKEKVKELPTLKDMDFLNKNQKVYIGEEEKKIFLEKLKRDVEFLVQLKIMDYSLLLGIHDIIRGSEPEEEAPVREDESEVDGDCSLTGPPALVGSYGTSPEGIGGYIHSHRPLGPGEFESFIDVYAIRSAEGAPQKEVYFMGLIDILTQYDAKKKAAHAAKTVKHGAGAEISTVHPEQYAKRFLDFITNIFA
RET M918T: Proto-oncogene tyrosine-protein kinase receptor Ret (RET, Homo sapiens, UniProt P07949, M918T)
UniProt P07949, sequence (whole entry, unmodified, looked up): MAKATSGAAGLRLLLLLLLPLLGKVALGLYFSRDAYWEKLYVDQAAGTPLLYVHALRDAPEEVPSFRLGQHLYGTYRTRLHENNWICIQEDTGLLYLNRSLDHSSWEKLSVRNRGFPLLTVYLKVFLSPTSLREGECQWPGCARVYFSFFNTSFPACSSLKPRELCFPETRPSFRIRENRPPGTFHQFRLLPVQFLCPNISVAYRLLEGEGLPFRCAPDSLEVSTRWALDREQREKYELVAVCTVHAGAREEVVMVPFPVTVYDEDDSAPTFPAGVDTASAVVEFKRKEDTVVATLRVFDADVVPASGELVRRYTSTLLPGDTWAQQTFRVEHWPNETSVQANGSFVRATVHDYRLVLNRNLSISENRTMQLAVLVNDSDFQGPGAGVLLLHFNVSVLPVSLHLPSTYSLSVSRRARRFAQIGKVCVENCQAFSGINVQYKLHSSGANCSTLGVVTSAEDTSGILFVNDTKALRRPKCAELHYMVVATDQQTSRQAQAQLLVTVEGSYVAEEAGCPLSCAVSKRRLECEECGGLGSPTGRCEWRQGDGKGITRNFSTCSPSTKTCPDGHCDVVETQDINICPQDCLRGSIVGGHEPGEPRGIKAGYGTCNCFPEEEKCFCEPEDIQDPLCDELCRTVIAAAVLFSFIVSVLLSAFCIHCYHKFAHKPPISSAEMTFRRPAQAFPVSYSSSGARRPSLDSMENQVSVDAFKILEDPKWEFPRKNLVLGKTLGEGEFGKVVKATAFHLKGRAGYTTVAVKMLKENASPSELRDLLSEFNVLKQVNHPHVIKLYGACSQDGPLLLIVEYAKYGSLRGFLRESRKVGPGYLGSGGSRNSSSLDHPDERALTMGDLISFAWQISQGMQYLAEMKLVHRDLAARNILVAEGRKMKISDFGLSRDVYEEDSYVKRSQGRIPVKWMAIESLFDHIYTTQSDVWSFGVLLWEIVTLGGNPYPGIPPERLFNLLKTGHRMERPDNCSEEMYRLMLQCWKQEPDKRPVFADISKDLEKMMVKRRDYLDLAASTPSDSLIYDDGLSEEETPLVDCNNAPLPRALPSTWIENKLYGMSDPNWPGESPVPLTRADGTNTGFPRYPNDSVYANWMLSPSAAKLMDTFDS
UniProt Q9UIF9, sequence (whole entry, looked up): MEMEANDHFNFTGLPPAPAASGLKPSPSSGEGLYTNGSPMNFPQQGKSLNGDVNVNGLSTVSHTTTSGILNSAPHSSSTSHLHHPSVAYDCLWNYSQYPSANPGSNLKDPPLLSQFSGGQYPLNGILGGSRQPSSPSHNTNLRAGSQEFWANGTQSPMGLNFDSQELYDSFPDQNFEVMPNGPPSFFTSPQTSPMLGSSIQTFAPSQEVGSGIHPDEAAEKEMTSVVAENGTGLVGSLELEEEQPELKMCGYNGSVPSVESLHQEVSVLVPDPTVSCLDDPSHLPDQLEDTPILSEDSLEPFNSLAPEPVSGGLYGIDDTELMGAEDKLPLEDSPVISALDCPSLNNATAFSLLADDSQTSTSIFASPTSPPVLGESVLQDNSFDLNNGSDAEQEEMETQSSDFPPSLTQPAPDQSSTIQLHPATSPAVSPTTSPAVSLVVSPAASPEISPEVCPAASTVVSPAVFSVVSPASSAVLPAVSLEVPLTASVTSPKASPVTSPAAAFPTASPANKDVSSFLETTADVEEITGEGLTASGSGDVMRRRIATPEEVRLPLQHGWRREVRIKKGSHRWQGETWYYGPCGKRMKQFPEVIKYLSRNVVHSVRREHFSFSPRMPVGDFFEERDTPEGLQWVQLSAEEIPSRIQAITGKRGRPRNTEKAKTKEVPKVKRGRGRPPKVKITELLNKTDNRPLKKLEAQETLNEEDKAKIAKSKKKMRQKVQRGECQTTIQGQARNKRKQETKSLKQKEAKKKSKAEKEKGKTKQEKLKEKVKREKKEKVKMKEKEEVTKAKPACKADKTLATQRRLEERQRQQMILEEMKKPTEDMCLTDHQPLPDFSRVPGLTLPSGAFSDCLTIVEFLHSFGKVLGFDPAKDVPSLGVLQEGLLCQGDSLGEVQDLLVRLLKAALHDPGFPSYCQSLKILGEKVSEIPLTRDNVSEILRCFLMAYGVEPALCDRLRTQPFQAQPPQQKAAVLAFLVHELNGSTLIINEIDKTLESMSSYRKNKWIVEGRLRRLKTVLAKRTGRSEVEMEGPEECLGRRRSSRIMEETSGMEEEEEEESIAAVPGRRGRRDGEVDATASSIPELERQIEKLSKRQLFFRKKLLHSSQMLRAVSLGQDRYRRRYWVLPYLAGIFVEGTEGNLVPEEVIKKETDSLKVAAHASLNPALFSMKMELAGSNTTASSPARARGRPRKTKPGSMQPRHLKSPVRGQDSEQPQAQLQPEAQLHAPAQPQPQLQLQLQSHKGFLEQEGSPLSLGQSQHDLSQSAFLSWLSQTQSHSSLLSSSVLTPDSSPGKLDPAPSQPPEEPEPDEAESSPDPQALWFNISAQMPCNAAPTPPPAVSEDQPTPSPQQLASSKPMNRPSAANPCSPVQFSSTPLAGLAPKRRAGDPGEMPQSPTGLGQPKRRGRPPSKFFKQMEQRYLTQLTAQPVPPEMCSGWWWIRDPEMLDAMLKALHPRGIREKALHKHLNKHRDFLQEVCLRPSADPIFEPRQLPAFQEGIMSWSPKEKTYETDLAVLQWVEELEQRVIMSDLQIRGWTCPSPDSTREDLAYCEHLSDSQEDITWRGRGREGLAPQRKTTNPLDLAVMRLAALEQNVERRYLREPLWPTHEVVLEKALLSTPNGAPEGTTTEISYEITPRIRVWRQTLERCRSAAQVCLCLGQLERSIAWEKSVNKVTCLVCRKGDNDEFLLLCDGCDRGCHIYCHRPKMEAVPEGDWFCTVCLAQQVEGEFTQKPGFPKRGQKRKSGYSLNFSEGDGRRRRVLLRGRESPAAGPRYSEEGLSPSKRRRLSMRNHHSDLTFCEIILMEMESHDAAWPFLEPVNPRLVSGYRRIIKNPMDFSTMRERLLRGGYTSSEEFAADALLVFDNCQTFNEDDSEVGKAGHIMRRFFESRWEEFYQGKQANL
UniProt P19525, sequence (whole entry, looked up): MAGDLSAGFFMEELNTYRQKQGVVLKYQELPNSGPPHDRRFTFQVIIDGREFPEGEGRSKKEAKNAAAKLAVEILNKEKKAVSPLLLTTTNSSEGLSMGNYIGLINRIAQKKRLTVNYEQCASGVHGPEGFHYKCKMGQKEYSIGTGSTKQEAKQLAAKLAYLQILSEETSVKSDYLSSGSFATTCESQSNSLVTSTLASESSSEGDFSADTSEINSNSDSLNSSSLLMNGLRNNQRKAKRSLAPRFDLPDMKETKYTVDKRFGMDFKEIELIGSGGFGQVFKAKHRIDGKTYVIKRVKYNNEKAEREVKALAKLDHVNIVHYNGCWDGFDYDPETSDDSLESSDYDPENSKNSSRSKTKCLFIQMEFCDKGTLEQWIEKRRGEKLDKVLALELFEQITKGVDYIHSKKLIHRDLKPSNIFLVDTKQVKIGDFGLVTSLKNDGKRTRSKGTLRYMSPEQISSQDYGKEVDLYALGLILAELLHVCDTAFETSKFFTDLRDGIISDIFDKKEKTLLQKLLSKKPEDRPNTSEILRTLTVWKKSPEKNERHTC

CNC1C[S+]2CC[S+]3CC[S+](C1)[Ru-4]321([N]=C=S)[n]2c3ccc(OC)cc3c3c4c(c5cc(F)c[n+]1c5c32)C(=O)NC4=O (stereo not drawn) — remaining binding (Tyrosine-protein kinase ABL1, non-phosphorylated (ABL1, Homo sapiens, UniProt P00519, H396P); KinomeScan; 0.1 µM; reference: untreated): 88%
Cc1cnc2nc1Nc1cccc(c1)COC/C=C/COCc1cc(ccc1OCCN1CCOCC1)N2 — remaining binding (EGFR (Homo sapiens, UniProt P00533, del746-750); binding; 0.1 µM): 77%
Cn1cc(-c2ccc3[nH]c4c(c3c2)-c2nc(N)ncc2CC4)cn1 — remaining binding (PIP4K2C; binding, competition with immobilised ligand; 1 µM): 0.3%
COc1cc(Nc2nccc(-c3cnn4nc(OC)ccc34)n2)cc(C(F)(F)F)c1 — remaining binding (RET M918T; binding, competition with immobilised ligand; 1 µM): 100%
Cn1cc(-c2cc(N3CCCCS3(=O)=O)ccc2N[C@H]2CC[C@H](C)CC2)c2cc[nH]c2c1=O (stereo in doubt) — remaining binding (Bromodomain adjacent to zinc finger domain protein 2B, bromodomain (BAZ2B, Homo sapiens, UniProt Q9UIF8); binding, competition with immobilised ligand; 1 µM): 100%
Nc1ncc2c(n1)-c1c([nH]c3ccc(C#CC4CC4)cc13)CC2 — remaining binding (PIP4K2C; binding, competition with immobilised ligand; 1 µM): 5%
CNC(=O)C1CCN(c2cc(C)c(F)cc2NC(=O)c2ccc(-c3cc(O)ccc3C)c(C)c2)CC1 — remaining binding (Tyrosine-protein kinase ABL1, phosphorylated (ABL1, Homo sapiens, UniProt P00519, E255K); binding, competition with immobilised ligand; 1 µM): 29%
CC(C)(O)CC#Cc1ccc2[nH]c3c(c2c1)-c1nc(N)ncc1CCC3 — remaining binding (PIP4K2C; binding, competition with immobilised ligand; 1 µM): 3.6%
C=CC(=O)N1CCCC(n2c(=O)c3ncccc3n(Cc3ccc(Oc4ccccc4)cc3)c2=O)C1 (stereo not drawn) — remaining binding (Tyrosine-protein kinase ABL1, phosphorylated (ABL1, Homo sapiens, UniProt P00519, Y253F); binding, competition with immobilised ligand; 1 µM): 95%
Nc1ncc2c(n1)-c1c([nH]c3ccc(C4=CCOCC4)cc13)CCC2 — remaining binding (PIP4K2C; binding, competition with immobilised ligand; 1 µM): 1.7%
CC(=O)N1c2ccc(-c3ccc(CNC(=O)c4cn5cc(-c6cnc(N)nc6)nc(N6CCOCC6)c5n4)cc3)cc2CC[C@@H]1C — remaining binding (Bromodomain adjacent to zinc finger domain protein 2A, bromodomain (BAZ2A, Homo sapiens, UniProt Q9UIF9); binding, competition with immobilised ligand; 10 µM): 27%
C=CC(=O)N1CCc2ccc(-n3c(=O)ccc4cnc5ccc(-c6cnn(C)c6)cc5c43)cc21 — remaining binding (Tyrosine-protein kinase ABL1, phosphorylated (ABL1, Homo sapiens, UniProt P00519, H396P); KINOMEscan, measured: (H396P)-phosphorylated; 1 µM; reference: control): 100%
Nc1ncc2c(n1)-c1c([nH]c3ccc(C#Cc4ccncc4)cc13)CCC2 — remaining binding (PIP4K2C; binding, competition with immobilised ligand; 1 µM): 47%
Cc1cc(NC(=O)[C@H](O)c2cc(F)cc(F)c2)ccc1-c1cnc(N)c(C(=O)NC(C)C)c1 — remaining binding (EIF2AK2 (Homo sapiens, UniProt P19525); binding, competition with immobilised ligand; 0.1 µM): 100%
COc1cc(Nc2nc(C)cc(-c3cnn4nc(OC)ccc34)n2)cc(C(F)(F)F)c1 — remaining binding (RET M918T; binding; 1 µM): 98%

Excerpt of the above:
Nc1ncc2c(n1)-c1c([nH]c3ccc(C#CC4CC4)cc13)CC2 — remaining binding (PIP4K2C; binding, competition with immobilised ligand; 1 µM): 5%
C=CC(=O)N1CCc2ccc(-n3c(=O)ccc4cnc5ccc(-c6cnn(C)c6)cc5c43)cc21 — remaining binding (Tyrosine-protein kinase ABL1, phosphorylated (ABL1, Homo sapiens, UniProt P00519, H396P); KINOMEscan, measured: (H396P)-phosphorylated; 1 µM; reference: control): 100%
